# Experimental data gathered from unrelated publications.
# Each numbered part is a random draw from the data of one study; scales do not carry over between parts.
# UniProt Q7KZI7, sequence (whole entry, looked up): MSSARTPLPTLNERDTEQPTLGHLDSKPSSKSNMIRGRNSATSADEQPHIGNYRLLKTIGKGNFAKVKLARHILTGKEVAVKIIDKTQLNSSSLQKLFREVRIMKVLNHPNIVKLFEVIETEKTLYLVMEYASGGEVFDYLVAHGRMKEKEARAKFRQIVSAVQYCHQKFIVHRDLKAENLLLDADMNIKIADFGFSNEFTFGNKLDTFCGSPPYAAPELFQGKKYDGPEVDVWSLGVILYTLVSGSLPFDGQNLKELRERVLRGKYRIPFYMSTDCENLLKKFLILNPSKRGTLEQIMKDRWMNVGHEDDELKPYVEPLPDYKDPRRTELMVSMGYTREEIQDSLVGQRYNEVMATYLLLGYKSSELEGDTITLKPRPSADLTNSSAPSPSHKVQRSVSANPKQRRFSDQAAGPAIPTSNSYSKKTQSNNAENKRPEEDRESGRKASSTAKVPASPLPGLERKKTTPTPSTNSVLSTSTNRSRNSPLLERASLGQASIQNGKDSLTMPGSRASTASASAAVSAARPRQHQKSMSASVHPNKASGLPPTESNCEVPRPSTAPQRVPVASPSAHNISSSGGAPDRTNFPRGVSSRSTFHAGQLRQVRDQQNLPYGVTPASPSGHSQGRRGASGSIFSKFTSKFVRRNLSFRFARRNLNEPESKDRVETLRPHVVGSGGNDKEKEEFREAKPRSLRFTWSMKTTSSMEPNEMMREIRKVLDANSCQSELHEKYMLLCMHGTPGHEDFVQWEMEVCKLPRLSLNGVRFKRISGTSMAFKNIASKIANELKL
# UniProt Q08881, sequence (whole entry, looked up): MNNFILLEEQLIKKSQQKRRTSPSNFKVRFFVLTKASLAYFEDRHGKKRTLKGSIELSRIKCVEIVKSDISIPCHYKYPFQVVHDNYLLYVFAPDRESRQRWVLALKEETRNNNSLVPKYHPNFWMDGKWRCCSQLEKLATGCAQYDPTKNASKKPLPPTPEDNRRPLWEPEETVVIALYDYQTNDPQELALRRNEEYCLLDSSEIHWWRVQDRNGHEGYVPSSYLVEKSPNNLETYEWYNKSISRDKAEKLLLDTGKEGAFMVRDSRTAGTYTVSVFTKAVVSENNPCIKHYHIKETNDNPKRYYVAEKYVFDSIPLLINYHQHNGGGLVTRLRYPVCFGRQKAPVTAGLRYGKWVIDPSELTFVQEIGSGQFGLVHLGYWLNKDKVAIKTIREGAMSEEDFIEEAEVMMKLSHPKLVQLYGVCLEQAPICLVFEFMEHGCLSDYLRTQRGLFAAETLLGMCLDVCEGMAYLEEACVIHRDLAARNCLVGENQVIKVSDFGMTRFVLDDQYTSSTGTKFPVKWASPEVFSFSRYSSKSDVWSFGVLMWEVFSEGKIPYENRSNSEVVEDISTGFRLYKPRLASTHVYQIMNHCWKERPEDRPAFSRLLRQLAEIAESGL
# UniProt Q13163, sequence (whole entry, looked up): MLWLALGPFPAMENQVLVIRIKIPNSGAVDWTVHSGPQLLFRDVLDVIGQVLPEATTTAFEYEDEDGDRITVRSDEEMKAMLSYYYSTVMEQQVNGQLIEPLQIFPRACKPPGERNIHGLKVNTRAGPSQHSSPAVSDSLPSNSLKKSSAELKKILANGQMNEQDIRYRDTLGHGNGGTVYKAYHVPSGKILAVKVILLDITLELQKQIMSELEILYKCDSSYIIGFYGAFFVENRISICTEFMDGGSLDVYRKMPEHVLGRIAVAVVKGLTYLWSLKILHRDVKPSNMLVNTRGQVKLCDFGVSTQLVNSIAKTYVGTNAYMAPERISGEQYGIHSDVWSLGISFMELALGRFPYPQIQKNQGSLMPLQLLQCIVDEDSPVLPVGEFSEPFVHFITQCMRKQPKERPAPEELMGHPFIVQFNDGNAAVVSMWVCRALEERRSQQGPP
# UniProt Q8TD08, sequence (whole entry, looked up): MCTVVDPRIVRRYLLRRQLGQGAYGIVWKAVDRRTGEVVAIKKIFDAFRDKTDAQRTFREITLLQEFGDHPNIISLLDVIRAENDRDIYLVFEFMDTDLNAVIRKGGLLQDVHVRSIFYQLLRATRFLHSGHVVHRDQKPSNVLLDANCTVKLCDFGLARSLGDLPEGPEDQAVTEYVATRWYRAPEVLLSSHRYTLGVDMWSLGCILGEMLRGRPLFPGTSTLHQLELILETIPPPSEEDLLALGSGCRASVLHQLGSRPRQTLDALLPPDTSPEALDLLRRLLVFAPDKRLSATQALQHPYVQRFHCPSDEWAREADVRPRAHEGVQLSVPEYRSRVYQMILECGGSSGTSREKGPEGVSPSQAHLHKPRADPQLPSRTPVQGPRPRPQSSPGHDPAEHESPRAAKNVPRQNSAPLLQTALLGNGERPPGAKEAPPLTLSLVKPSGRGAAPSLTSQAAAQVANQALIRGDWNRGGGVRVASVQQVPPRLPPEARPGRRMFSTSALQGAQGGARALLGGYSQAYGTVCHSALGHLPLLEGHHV
# UniProt Q06187, sequence (whole entry, looked up): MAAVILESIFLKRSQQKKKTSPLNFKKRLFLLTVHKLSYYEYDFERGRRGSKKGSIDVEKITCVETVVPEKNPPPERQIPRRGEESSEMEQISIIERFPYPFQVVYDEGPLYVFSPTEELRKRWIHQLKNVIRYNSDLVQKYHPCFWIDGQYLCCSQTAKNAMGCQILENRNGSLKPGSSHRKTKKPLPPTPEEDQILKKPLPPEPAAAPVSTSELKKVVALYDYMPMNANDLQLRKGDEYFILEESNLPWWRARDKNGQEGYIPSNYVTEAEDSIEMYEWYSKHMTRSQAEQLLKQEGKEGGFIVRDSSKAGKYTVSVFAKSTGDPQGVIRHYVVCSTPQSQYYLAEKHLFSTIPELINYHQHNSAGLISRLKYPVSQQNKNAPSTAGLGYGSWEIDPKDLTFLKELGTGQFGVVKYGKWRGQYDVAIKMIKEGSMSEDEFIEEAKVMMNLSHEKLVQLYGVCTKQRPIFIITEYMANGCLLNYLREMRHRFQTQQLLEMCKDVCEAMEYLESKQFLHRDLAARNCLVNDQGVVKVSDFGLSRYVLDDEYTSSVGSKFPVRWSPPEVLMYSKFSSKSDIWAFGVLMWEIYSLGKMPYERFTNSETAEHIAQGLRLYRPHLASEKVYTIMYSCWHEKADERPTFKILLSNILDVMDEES
# UniProt Q04771, sequence (whole entry, looked up): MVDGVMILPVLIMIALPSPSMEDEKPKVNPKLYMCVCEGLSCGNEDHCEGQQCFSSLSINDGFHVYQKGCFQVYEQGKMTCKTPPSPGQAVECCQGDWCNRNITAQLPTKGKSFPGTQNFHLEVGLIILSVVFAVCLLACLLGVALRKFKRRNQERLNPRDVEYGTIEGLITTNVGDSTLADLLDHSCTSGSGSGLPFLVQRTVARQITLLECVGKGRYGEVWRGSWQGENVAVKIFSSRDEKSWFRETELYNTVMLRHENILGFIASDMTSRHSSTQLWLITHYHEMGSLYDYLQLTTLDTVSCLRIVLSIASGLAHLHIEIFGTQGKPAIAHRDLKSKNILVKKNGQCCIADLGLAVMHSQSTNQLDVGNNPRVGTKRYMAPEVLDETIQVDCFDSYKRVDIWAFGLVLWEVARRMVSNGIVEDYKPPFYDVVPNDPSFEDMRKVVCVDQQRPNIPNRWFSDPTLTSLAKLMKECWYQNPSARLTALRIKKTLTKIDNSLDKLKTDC
# UniProt Q9P1W9, sequence (whole entry, looked up): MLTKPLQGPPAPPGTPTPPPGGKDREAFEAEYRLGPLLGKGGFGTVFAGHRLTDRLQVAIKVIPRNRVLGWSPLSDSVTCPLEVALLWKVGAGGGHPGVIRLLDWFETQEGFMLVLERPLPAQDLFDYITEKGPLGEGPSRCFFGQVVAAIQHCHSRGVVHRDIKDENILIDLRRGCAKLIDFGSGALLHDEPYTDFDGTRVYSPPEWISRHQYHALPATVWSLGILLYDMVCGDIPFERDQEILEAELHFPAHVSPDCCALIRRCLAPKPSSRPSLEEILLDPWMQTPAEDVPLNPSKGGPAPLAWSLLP

# Sample 1 — method: logD(dd/w) and ALogP; notes: MRN method
Structure (SMILES),lipophilic permeability efficiency
CC[C@@H]1C(=O)N(C)[C@@H](CC(C)C)C(=O)N[C@@H](CC(C)C)C(=O)N2CCC[C@@H]2C(=O)N(C)[C@@H](Cc2ccc(O)cc2)C(=O)N[C@@H](CC(C)C)C(=O)N1C,1.68
CC(C)C[C@@H]1NC(=O)[C@H](Cc2ccccc2)NC(=O)[C@H]2CCCN2C(=O)[C@H](CC(C)C)NC(=O)[C@H](C)NC(=O)[C@@H](C)NC1=O,1.84
CC(C)C[C@@H]1NC(=O)[C@H](Cc2ccccc2)N(C)C(=O)[C@H]2CCCN2C(=O)[C@H](CC(C)C)NC(=O)[C@H](C)N(C)C(=O)[C@@H](C)N(C)C1=O,3.68
CC(C)C[C@@H]1NC(=O)[C@H](Cc2ccccc2)NC(=O)[C@H]2CCCN2C(=O)[C@H](CC(C)C)NC(=O)[C@H](CC2CCCCC2)NC(=O)[C@@H](CC(C)C)NC1=O,1.84
CCC[C@H]1NC(=O)[C@H](CC(C)C)NC(=O)[C@H](Cc2ccc(O)cc2)NC(=O)[C@H]2CCCN2C(=O)[C@H](CC2CCCCC2)NC(=O)[C@H](CC2CCCCC2)NC1=O,-0.0378
CC(C)C[C@@H]1NC(=O)[C@H](Cc2ccccc2)N(C)C(=O)[C@H]2CCCN2C(=O)[C@H](CC(C)C)NC(=O)[C@H](CC(C)C)N(C)C(=O)[C@@H](C)N(C)C1=O,3.7

# Sample 2 — Structure (SMILES): C=CCc1ccc(O)c(-c2cc(CC=C)ccc2O)c1; read-out: chloride current; method: whole-cell voltage clamp
# ANO1 del476-501/F807A: Anoctamin-1 (ANO1, Homo sapiens, UniProt Q5XXA6, del476-501/F807A)
# UniProt Q5XXA6, sequence (whole entry, unmodified, looked up): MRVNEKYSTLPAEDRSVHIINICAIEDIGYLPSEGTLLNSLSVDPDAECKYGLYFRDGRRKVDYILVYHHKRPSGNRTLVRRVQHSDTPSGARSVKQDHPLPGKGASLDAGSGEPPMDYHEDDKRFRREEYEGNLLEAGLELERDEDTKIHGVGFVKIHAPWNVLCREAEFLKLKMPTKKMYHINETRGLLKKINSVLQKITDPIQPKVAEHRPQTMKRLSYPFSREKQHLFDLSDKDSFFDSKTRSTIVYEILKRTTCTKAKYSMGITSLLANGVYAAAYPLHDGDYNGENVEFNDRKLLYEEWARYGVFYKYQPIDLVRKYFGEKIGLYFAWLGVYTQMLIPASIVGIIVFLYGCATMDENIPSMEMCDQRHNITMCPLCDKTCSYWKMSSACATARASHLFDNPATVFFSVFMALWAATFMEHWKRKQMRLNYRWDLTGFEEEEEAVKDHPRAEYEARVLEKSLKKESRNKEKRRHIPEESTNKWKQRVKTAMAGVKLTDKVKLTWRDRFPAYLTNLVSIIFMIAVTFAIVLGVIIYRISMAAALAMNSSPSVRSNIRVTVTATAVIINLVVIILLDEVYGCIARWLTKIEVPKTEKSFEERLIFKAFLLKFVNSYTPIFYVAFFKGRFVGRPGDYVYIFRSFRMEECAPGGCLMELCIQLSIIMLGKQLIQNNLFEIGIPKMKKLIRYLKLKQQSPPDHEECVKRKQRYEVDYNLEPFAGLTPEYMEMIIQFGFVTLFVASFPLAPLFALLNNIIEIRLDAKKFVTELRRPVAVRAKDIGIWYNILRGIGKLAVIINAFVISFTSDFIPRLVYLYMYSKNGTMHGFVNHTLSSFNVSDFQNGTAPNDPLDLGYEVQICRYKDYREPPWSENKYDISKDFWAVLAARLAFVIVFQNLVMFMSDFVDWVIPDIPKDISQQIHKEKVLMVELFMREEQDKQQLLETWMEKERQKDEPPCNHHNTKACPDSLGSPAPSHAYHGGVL
target,mode,concentration,notes,IC50 [µM]
"Anoctamin-1 (ANO1, Homo sapiens, UniProt Q5XXA6, del476-501/E650A)",,,membrane voltage -20 mV,18
"Anoctamin-1 (ANO1, Homo sapiens, UniProt Q5XXA6, del476-501/E649K)",inhibitor,,E623K mutant at -100 mV,165
"Anoctamin-1 (ANO1, Homo sapiens, UniProt Q5XXA6, del476-501/L548A)",,,membrane voltage -20 mV,32.1
"Anoctamin-1 (ANO1, Homo sapiens, UniProt Q5XXA6, del476-501/K629D)",inhibitor,20 mV holding voltage,,193
ANO1 del476-501/F807A,,,membrane voltage -80 mV,25.7
ANO1 del476-501/F807A,,,membrane voltage -20 mV,18.1
"Anoctamin-1 (ANO1, Homo sapiens, UniProt Q5XXA6, del476-501/M544I)",inhibitor,20 mV holding voltage,,247
"Anoctamin-1 (ANO1, Homo sapiens, UniProt Q5XXA6, D383A/del476-501)",,,membrane voltage -60 mV,28.7
"Anoctamin-1 (ANO1, Homo sapiens, UniProt Q5XXA6, del476-501/K629R)",inhibitor,,mutant K603R,251
"Anoctamin-1 (ANO1, Homo sapiens, UniProt Q5XXA6, del476-501/M544V)",inhibitor,20 mV holding voltage,,65.4
"Anoctamin-1 (ANO1, Homo sapiens, UniProt Q5XXA6, del476-501/F646A)",,,membrane voltage -60 mV,21

# Sample 3 — read-out: cell-free assay; method: competition with immobilised ligand; concentration: 1 µM
# SMILES: CN([C@@H]1CCc2c(CC(=O)O)c3cc(S(C)(=O)=O)ccc3n2C1)S(=O)(=O)c1ccc(F)cc1
target,remaining binding
"PIM2 (Homo sapiens, UniProt Q9P1W9)",100%
"MAPK15 (Homo sapiens, UniProt Q8TD08)",100%
"MARK2 (Homo sapiens, UniProt Q7KZI7)",100%
"Tyrosine-protein kinase ABL1, phosphorylated (ABL1, Homo sapiens, UniProt P00519, T315I)",93%
"PRKCH (Homo sapiens, UniProt P24723)",100%
"BTK (Homo sapiens, UniProt Q06187)",90%
"MTOR (Homo sapiens, UniProt P42345)",79%
"TGFBR2 (Homo sapiens, UniProt P37173)",67%
"PIK3CA (Homo sapiens, UniProt P42336, C420R)",98%
"ITK (Homo sapiens, UniProt Q08881)",100%
"ACVR1 (Homo sapiens, UniProt Q04771)",90%
"MAP3K9 (Homo sapiens, UniProt P80192)",91%
"CSK (Homo sapiens, UniProt P41240)",99%
"ULK3 (Homo sapiens, UniProt Q6PHR2)",79%
"MAP2K5 (Homo sapiens, UniProt Q13163)",100%
"MAP3K10 (Homo sapiens, UniProt Q02779)",100%
"RIOK2 (Homo sapiens, UniProt Q9BVS4)",96%

# Sample 4 — organism: Sarcocystis neurona; read-out: parasite growth; concentration: 10 µM; time: 96 h; notes: second screen; relative to: untreated
Compound,log2 fold change
C[C@@H]1O[C@@H](OC[C@H]2O[C@@H](Oc3c(-c4ccc(O)c(O)c4)oc4cc(O)cc(O)c4c3=O)[C@H](O)[C@@H](O)[C@@H]2O)[C@H](O)[C@H](O)[C@H]1O,0.24
CC(=O)OCC(=O)NCCCOc1cccc(CN2CCCCC2)c1,0.46
CC(=O)O[C@]1(C(C)=O)CC[C@H]2[C@@H]3C=C(C)C4=CC(=O)CC[C@]4(C)[C@H]3CC[C@@]21C,0.11
CCCc1nc2c(C)cc(-c3nc4ccccc4n3C)cc2n1Cc1ccc(-c2ccccc2C(=O)O)cc1,-0.24
CS(=O)(=O)c1ccc(C2=C(c3ccccc3)C(=O)OC2)cc1,0.06
CCc1cccc2c3c([nH]c12)C(CC)(CC(=O)O)OCC3 (stereo not drawn),0.52
CN1CC(=O)N2[C@H](c3ccc4c(c3)OCO4)c3[nH]c4ccccc4c3C[C@@H]2C1=O,0.59
Nc1nc(F)nc2c1ncn2[C@@H]1O[C@H](CO)[C@@H](O)[C@@H]1O,0.26
CN(C)[C@@H]1C(O)=C(C(=O)NCN2CCCC2)C(=O)[C@@]2(O)C(O)=C3C(=O)c4c(O)cccc4[C@@](C)(O)[C@H]3C[C@@H]12,0.23
Cc1ccc(O)c([C@H](CCN(C(C)C)C(C)C)c2ccccc2)c1,0.35
Cc1nc2n(c(=O)c1CCN1CCC(c3noc4cc(F)ccc34)CC1)CCCC2,0.24

# Repeated from above (sample 4):
Compound,log2 fold change
CC(=O)OCC(=O)NCCCOc1cccc(CN2CCCCC2)c1,0.46
CCc1cccc2c3c([nH]c12)C(CC)(CC(=O)O)OCC3 (stereo not drawn),0.52
CS(=O)(=O)c1ccc(C2=C(c3ccccc3)C(=O)OC2)cc1,0.06
